Measured values gathered from unrelated publications.
Parts stem from different laboratories: compare values within a part only. Several values in a cell are separate wells, animals, samples, runs or records.
UniProt P11362, sequence (whole entry, looked up): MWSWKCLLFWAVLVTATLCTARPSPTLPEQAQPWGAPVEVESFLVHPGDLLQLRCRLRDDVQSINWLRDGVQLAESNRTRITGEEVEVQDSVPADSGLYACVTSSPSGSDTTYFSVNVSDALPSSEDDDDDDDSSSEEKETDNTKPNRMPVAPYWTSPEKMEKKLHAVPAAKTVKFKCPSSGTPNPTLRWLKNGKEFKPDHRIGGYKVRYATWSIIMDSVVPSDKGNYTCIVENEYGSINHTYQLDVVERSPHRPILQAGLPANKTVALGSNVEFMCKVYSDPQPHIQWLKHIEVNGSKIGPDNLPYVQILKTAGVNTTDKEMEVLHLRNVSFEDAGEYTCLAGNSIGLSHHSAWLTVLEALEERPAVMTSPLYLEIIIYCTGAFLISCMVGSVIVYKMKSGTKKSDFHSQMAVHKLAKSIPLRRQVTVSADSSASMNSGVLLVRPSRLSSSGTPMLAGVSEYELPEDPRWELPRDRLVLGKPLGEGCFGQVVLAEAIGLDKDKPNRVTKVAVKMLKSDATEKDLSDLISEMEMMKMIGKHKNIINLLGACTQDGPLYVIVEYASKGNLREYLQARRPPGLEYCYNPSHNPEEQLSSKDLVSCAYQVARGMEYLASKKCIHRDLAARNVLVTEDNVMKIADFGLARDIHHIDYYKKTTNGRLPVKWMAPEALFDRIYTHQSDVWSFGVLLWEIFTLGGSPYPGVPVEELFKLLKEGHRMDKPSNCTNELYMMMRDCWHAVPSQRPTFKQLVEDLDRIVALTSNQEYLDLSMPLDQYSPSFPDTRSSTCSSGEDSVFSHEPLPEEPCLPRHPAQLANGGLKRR
UniProt P42685, sequence (whole entry, looked up): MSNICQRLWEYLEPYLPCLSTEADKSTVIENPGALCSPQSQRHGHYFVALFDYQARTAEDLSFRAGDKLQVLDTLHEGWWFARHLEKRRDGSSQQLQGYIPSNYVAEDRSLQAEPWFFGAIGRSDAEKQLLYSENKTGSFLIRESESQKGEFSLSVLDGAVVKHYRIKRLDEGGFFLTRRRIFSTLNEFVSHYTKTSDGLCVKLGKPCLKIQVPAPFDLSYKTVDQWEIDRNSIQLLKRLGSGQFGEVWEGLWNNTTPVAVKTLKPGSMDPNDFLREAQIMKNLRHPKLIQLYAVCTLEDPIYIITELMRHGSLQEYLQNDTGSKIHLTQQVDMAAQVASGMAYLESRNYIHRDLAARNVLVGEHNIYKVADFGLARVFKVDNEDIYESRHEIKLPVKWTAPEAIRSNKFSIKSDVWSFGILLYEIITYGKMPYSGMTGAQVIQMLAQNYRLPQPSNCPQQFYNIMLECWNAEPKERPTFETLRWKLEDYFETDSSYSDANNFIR
UniProt P36507, sequence (whole entry, looked up): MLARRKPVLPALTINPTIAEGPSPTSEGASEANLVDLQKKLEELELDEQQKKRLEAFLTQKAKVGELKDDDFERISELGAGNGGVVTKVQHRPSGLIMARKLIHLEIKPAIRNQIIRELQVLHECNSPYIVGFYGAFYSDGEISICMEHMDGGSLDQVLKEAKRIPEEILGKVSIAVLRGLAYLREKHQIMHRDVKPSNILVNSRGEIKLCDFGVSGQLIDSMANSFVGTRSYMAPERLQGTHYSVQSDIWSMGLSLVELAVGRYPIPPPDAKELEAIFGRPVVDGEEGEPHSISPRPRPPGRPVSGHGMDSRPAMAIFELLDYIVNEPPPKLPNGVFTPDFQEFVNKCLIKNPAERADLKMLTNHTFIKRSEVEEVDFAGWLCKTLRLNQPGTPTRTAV
UniProt P30291, sequence (whole entry, looked up): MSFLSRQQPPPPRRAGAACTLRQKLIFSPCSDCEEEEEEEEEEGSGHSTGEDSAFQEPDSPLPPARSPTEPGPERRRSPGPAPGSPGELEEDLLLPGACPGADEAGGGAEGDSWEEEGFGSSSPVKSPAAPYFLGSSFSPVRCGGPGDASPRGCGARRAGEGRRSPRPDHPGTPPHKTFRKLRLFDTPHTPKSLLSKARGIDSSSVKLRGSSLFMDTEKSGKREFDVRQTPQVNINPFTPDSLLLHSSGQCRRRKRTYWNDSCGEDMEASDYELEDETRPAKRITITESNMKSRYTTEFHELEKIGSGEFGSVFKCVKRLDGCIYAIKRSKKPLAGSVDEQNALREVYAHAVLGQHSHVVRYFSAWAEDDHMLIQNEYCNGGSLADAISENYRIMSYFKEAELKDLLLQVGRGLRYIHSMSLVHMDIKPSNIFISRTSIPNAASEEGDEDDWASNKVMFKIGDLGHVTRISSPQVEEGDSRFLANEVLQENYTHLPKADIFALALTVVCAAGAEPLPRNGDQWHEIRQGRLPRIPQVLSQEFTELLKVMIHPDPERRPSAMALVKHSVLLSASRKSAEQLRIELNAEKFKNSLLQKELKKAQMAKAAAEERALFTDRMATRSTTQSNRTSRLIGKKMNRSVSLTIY
UniProt Q99558, sequence (whole entry, looked up): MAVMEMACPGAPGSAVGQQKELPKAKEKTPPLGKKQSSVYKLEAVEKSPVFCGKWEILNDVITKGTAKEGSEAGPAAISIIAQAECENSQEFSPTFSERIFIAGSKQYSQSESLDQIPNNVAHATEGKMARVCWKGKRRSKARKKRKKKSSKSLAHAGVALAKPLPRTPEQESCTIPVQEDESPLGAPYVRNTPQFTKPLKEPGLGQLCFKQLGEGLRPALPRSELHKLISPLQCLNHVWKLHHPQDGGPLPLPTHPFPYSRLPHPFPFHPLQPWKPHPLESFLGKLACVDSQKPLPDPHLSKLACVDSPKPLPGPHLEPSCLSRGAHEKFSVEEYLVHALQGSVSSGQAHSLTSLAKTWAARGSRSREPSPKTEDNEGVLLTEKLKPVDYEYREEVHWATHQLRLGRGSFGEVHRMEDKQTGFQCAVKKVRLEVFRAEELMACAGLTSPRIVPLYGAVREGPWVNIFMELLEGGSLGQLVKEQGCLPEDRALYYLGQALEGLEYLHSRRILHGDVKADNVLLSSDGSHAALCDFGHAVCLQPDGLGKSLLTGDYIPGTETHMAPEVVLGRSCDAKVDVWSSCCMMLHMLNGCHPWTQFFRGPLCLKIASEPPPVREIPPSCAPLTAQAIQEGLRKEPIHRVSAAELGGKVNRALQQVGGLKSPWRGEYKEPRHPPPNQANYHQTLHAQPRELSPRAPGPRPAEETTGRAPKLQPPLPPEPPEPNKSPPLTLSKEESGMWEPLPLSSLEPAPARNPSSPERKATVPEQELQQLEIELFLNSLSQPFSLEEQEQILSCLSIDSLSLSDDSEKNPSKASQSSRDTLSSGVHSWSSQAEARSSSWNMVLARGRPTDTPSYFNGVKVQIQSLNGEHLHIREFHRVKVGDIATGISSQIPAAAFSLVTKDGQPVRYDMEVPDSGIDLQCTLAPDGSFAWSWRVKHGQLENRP
UniProt Q04912, sequence (whole entry, looked up): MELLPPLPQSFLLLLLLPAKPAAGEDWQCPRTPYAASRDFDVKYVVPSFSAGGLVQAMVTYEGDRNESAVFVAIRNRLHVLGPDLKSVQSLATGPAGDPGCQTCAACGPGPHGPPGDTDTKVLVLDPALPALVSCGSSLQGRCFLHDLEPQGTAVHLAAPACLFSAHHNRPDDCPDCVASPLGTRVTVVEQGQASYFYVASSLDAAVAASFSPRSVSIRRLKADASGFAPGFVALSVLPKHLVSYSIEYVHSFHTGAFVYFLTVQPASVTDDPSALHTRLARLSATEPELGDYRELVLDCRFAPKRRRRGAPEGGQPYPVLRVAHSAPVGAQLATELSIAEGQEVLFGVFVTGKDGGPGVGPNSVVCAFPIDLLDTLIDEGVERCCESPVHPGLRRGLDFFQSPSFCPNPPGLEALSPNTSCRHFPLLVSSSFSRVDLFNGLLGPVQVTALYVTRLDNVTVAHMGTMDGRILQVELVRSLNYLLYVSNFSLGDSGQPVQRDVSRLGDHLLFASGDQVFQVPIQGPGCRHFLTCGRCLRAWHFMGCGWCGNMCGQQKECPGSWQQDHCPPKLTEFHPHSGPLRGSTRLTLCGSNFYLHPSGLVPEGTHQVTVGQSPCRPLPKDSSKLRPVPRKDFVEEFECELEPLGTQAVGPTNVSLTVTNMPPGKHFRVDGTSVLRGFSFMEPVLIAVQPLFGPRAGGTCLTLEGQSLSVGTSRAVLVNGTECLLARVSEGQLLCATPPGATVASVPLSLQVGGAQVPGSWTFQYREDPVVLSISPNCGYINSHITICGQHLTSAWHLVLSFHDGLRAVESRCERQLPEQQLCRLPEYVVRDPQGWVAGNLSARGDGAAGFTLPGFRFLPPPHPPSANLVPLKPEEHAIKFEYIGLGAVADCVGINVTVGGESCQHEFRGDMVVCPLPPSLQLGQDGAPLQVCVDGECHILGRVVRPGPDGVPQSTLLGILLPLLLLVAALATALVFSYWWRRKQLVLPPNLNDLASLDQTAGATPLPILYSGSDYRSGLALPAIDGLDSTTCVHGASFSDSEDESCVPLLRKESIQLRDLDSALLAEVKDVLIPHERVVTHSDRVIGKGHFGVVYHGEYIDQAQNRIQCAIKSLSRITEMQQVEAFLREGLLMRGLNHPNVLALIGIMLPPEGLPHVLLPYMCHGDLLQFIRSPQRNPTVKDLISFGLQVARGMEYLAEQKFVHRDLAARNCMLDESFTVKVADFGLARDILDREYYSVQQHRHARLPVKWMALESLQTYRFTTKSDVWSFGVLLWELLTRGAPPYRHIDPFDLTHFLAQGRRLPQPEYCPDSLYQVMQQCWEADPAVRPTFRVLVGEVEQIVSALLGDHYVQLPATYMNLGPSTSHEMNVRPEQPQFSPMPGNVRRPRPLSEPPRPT

Sample 1
SMILES: COc1ccc(Cl)cc1NC(=O)Nc1cc(C)nc2ccccc12
Effect on: enzyme activity
Mode: inhibitor
Tested at: 0.5 µM
Reference: control
The remaining activity was 84.9% (MAP3K14 (Homo sapiens, UniProt Q99558)).
For FGFR3 (Homo sapiens, UniProt P22607): remaining activity read 96.3%.
NEK1 (Homo sapiens, UniProt Q96PY6) — remaining activity: 96.3%.
MAP2K2 (Homo sapiens, UniProt P36507) — remaining activity: 94.1%.
For MERTK (Homo sapiens, UniProt Q12866): remaining activity read 93.3%.
EPHA3 (Homo sapiens, UniProt P29320) — remaining activity: 99.1%.
MST1R (Homo sapiens, UniProt Q04912) — remaining activity: 82.4%.
For FRK (Homo sapiens, UniProt P42685): remaining activity read 98.4%.
It gave 89% for remaining activity (WEE1 (Homo sapiens, UniProt P30291)).
For TBK1 (Homo sapiens, UniProt Q9UHD2): remaining activity read 100%.
For MAPK3 (Homo sapiens, UniProt P27361): remaining activity read 94.6%.
It gave 86.1% for remaining activity (FGFR1 (Homo sapiens, UniProt P11362)).
GSK3B (Homo sapiens, UniProt P49841) — remaining activity: 91.6%.
For TAOK2 (Homo sapiens, UniProt Q9UL54): remaining activity read 98.2%.

Sample 2
Medium: 1,9-decadiene/PBS
pH: 7.4
`CC(C)C[C@@H]1NC(=O)[C@H](Cc2cscn2)NC(=O)[C@H](Cc2cscn2)NC(=O)[C@H](CCC(=O)N2CCCC2)NC(=O)[C@@H](CCC(=O)N2CCCC2)NC(=O)[C@H](CC(C)C)NC(=O)[C@@H](CC(C)C)NC1=O` gave a logD of -2.72.
`CC(C)C[C@@H]1NC(=O)[C@H](CC(C)C)NC(=O)[C@H](CC(C)C)NC(=O)[C@H](Cc2cscn2)NC(=O)[C@@H](CCC(=O)N2CCCC2)NC(=O)[C@H](Cc2cscn2)NC(=O)[C@H](C)NC1=O` has a logD of -2.83.
`CC(C)C[C@@H]1NC(=O)[C@H](CC(C)C)NC(=O)[C@H](CC(C)C)NC(=O)[C@@H](C)NC(=O)[C@H](C(C)C)NC(=O)[C@H](Cc2cscn2)NC(=O)[C@H](C)NC1=O` gave a logD of -1.68.
For `CC(C)C[C@@H]1NC(=O)[C@H](Cc2cscn2)NC(=O)[C@H](CCC(=O)N2CCCC2)NC(=O)[C@H](C)NC(=O)[C@@H](CCC(=O)N2CCCC2)NC(=O)[C@H](CC(C)C)NC(=O)[C@@H](CC(C)C)NC1=O`, the logD was -2.89.
For `CC(C)C[C@@H]1NC(=O)[C@H](CC(C)C)NC(=O)[C@@H](C(C)C)NC(=O)[C@@H](C)NC(=O)[C@H](C)NC(=O)[C@@H](CC(C)C)NC(=O)[C@H](C)NC1=O`, the logD was -2.06.
`CC(C)C[C@@H]1NC(=O)[C@H](C)NC(=O)[C@H](CCC(=O)N2CCCC2)NC(=O)[C@H](CCC(=O)N2CCCC2)NC(=O)[C@@H](CCC(=O)N2CCCC2)NC(=O)[C@H](CC(C)C)NC(=O)[C@@H](CC(C)C)NC1=O` has a logD of -2.64.
`CC(C)C[C@@H]1NC(=O)[C@H](Cc2cscn2)NC(=O)[C@H](C)NC(=O)[C@H](C)NC(=O)[C@@H](CCC(=O)N2CCCC2)NC(=O)[C@H](CC(C)C)NC(=O)[C@@H](CC(C)C)NC1=O` gave a logD of -2.96.

Sample 3
Cell line: normal-adjacent organoid sample G
Method: CellTiter-Glo
Tested at: 1 µM
Notes: replicate mean
Reference: DMSO
With `O=C(NC[C@@H]1[C@H]2CN(C(=O)OCc3cc(C(F)(F)F)cc(C(F)(F)F)c3)C[C@@H]12)c1ccc2[nH]nnc2c1` the viability was 101%.
For `CCS(=O)(=O)c1cc2cc(C[C@](O)(CC(C)(C)c3ccc(F)cc3C(N)=O)C(F)(F)F)[nH]c2cn1`, the viability was 93.4%.
`O=C(Nc1cccnn1)N1CCC(=Cc2cccc(Oc3ccc(C(F)(F)F)cn3)c2)CC1` has a viability of 99%.
`Cc1c(NC(=O)c2cc(C(N)=O)nc3cc(F)ccc23)c(C(F)(F)F)nn1Cc1ccc(C#N)cc1` has a viability of 19%.
With `CN1CCN(C(=O)C(C)(C)c2ccc(C(=O)Nc3cn4cc(-c5ccncc5)ccc4n3)cc2)CC1` the viability was 54.1%.
`Cc1cc(-n2nc(Cc3cc(F)cc(C(F)(F)F)c3)nc2C)ccc1C(N)=O` gave a viability of 103%.
The viability of `Cn1nc(C(F)(F)F)cc1-c1cnc(N2CCc3cc(S(=O)(=O)Nc4c(F)cc(Cl)cc4F)cc(N4CCCC4=O)c32)nc1` is reported as 105%.

Sample 4
Cell line: mouse MPNST tumor cells
Method: high-content immunofluorescence imaging
Measured: nuclear SOX9
Tested at: 10 µM
Time: 12 h
Notes: mean of 2 replicates
Reference: DMSO control
Reading: higher = more nuclear SOX9
`CNCC[C@@H](Oc1ccccc1C)c1ccccc1` — result for “nuclear SOX9 intensity”: 105 % of DMSO.
`C=CCSCC1Nc2cc(Cl)c(S(N)(=O)=O)cc2S(=O)(=O)N1` (stereo not drawn) — result for “nuclear SOX9 intensity”: 101 % of DMSO.
Under “nuclear SOX9 intensity”, `COc1ccc2c(c1)C(=O)N(CCc1ccc(S(=O)(=O)NC(=O)NC3CCCCC3)cc1)C(=O)C2(C)C` is recorded as 85.8 % of DMSO.
For `O=C1c2c(O)cccc2Cc2cccc(O)c21`, “nuclear SOX9 intensity” read 104 % of DMSO.
For `Cc1cccc(-c2[nH]ncc2-c2ccc(F)c(-c3cnn(CCO)c3)c2)n1`, “nuclear SOX9 intensity” read 135 % of DMSO.
For `Nc1ncc2c(n1)CC(c1ccco1)CC2=O` (stereo not drawn), “nuclear SOX9 intensity” read 96.7 % of DMSO.
Under “nuclear SOX9 intensity”, `CCn1c(=Cc2cccc[n+]2CC)sc(=C2Sc3ccccc3N2C)c1=O` is recorded as 94.7 % of DMSO.
`Nc1nnc(-c2cccc(Cl)c2Cl)c(N)n1`: “nuclear SOX9 intensity” 96 % of DMSO and 98 % of DMSO.

Repeated from above (sample 2):
`CC(C)C[C@@H]1NC(=O)[C@H](CC(C)C)NC(=O)[C@H](CC(C)C)NC(=O)[C@H](Cc2cscn2)NC(=O)[C@@H](CCC(=O)N2CCCC2)NC(=O)[C@H](Cc2cscn2)NC(=O)[C@H](C)NC1=O` has a logD of -2.83.
For `CC(C)C[C@@H]1NC(=O)[C@H](CC(C)C)NC(=O)[C@@H](C(C)C)NC(=O)[C@@H](C)NC(=O)[C@H](C)NC(=O)[C@@H](CC(C)C)NC(=O)[C@H](C)NC1=O`, the logD was -2.06.
`CC(C)C[C@@H]1NC(=O)[C@H](Cc2cscn2)NC(=O)[C@H](C)NC(=O)[C@H](C)NC(=O)[C@@H](CCC(=O)N2CCCC2)NC(=O)[C@H](CC(C)C)NC(=O)[C@@H](CC(C)C)NC1=O` gave a logD of -2.96.
